Results pooled from the literature.
Every numbered part comes from another study and shows a few of its results, in no order. Positions count from the first letter of the parent shown.

Set 1
Target: Histone acetyltransferase KAT6A, both winged helices, GST fusion (KAT6A, Homo sapiens, UniProt Q92794, residues 1-181)
Technique: protein binding microarray
Form: double-stranded DNA, one strand shown
Medium: in vitro
Tested at: not given
Notes: 8-mer, flanks averaged, mean of 2 arrays, mostly near background
Relative to: not given
Reading: higher = stronger binding
Endpoint: E-score
Construct (chain): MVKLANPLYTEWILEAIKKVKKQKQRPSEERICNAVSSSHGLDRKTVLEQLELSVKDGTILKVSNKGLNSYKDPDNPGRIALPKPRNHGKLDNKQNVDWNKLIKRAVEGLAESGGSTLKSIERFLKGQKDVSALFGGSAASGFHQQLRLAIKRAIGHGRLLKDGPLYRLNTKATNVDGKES
AAAAATGC: 0.0312
AGTACTGG: -0.22
CAGTGGGG: -0.23
ACCGATCC: 0.0268
ACCGCAAG: 0.137
CAGGAGAA: -0.189
ATGCATCG: 0.00737
ACGCCTAA: -0.037
CTCAATAA: -0.133
CACAATGC: 0.0649
CACTCTAG: -0.12
CAACTCCA: -0.147

Set 2
Target: CCNA2, cyclin fold, Cln2 fusion (human)
Technique: yeast growth competition, sequencing
Medium: yeast
Notes: weak parent motif
Relative to: not given
Reading: higher = stronger binding
Endpoint: normalised enrichment score
Starting sequence: MASTL docking peptide (human); PMIAKNLMCELDE
PMMAKNLMCELDE [I3M]: -0.362
PMILKNLMCELDE [A4L]: 0.0413
PMIAKNLSCELDE [M8S]: 0.0828
PMIAKNLCCELDE [M8C]: -0.638
PYIAKNLMCELDE [M2Y]: 0.378
PMIAKNLMCEMDE [L11M]: -0.566
PMIGKNLMCELDE [A4G]: -0.335
PMIAKNFMCELDE [L7F]: -0.362
PMIAKNLACELDE [M8A]: -0.235
PMIAKLLMCELDE [N6L]: -0.0169
PMIAINLMCELDE [K5I]: -0.0898
PMIAKNLMCELIE [D12I]: -0.445
PMIAKNLMCVLDE [E10V]: 0.361

Set 3
Target: CEP164, C-terminal peptide (human)
Technique: DHFR complementation, deep sequencing
Medium: yeast
Notes: single substitutions, model-inferred values
Relative to: wild type
Reading: higher = weaker binding
Endpoint: binding free energy change
Starting sequence: PDZK1, PDZ domain 2 (human); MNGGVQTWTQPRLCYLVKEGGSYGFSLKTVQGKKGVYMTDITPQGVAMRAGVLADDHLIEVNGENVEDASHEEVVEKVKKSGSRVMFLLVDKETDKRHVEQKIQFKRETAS; partner HNRVKVYRF
V17N: 0.179 kcal/mol
P43H: 0.224 kcal/mol
G24P: 1.3 kcal/mol
G21I: -0.0381 kcal/mol
E67M: 0.0585 kcal/mol
G21E: -0.0324 kcal/mol
T94C: 0.00167 kcal/mol
G20K: 0.0205 kcal/mol

Mixed results
PhoQ, residues 284 288 289 292 302 303 SVHLDV
fold induction (PhoP, residues 12 14 15 18 19 GHCSL (Escherichia coli, UniProt P23836); Sort-seq, measured: YFP reporter; E. coli; PhoQ-PhoP variant library, with: 10 µM Mg2+; relative to: high Mg2+ state, higher = stronger signaling): 8.38

Some of these lines once more (set 1):
ATGCATCG: 0.00737
ACGCCTAA: -0.037
CTCAATAA: -0.133
